Measurements collected from several papers.
Each line is one published result; not all experiments were run side by side. Numbers after ± are the reported error.

SMILES | tested on | test | system | conditions | measurement | result
CC(C)C(=O)OC[C@@]1(F)O[C@@H](n2cnc(-c3c[nH]c(=O)nc3N)c2)[C@H](OC(=O)C(C)C)[C@@H]1OC(=O)C(C)C | Zaire ebolavirus | viral replication, reporter virus | Huh-7 | 72 h | IC50 | 66.6 µM
CCOP(=O)(OCC)Oc1ccc([N+](=O)[O-])cc1 | SH-SY5Y | cell viability | – | 24 h, nominal concentration | IC10 | 766 µM
CC(C)[C@H]1C(=O)O[C@H](C(C)C)C(=O)N(C)[C@@H](C(C)C)C(=O)O[C@H](C(C)C)C(=O)N(C)[C@@H](C(C)C)C(=O)O[C@H](C(C)C)C(=O)N1C | – | LC-MS/MS | CB-17 scid/scid mice, colon | intraperitoneal, 5 mg/kg, 24 h after last dose, daily dosing | tissue concentration | 0.15 µg/kg
CCCCCCCCCCCCCC[N+](C)(C)C | Sodium channel protein type 4 alpha, BTX-activated (Oryctolagus cuniculus, UniProt G1SLL9) | – | – | concentration not given, 0 mV | k-1 | 12.6 s⁻¹
O=c1ccn([C@@H]2O[C@](F)(CO)[C@@H](O)[C@H]2O)c(=O)[nH]1 | Mammarenavirus lassaense | viral replication | HeLa, clade III Nigeria-231 | – | EC50 | 8.43 µM
Nc1ncncc1-c1cn([C@@H]2O[C@](F)(CO)[C@@H](O)[C@H]2O)cn1 | Zaire ebolavirus | viral replication, reporter virus | Huh-7 | 72 h | IC50 | > 100 µM
FC(F)(F)c1cc(NC(=S)N/N=C/c2ccccn2)cc(C(F)(F)F)c1 | MERS-CoV spike VSV pseudovirus | pseudovirus entry | – | 10 µM | inhibition | 75%
CCOP(=S)(OCC)Oc1nc(Cl)c(Cl)cc1Cl | ReNcell VM | mitochondrial membrane potential, TMRM | – | 24 h | IC50 | 5.5 ± 0.23 µM

Repeated from above:
SMILES | tested on | test | system | conditions | measurement | result
FC(F)(F)c1cc(NC(=S)N/N=C/c2ccccn2)cc(C(F)(F)F)c1 | MERS-CoV spike VSV pseudovirus | pseudovirus entry | – | 10 µM | inhibition | 75%
